# Results of several laboratories.
# A part holds a random share of what one study measured. Values joined by “and” are separate records of one study, mostly repeats; a detail may differ.
# UniProt Q9BZL6, sequence (whole entry, looked up): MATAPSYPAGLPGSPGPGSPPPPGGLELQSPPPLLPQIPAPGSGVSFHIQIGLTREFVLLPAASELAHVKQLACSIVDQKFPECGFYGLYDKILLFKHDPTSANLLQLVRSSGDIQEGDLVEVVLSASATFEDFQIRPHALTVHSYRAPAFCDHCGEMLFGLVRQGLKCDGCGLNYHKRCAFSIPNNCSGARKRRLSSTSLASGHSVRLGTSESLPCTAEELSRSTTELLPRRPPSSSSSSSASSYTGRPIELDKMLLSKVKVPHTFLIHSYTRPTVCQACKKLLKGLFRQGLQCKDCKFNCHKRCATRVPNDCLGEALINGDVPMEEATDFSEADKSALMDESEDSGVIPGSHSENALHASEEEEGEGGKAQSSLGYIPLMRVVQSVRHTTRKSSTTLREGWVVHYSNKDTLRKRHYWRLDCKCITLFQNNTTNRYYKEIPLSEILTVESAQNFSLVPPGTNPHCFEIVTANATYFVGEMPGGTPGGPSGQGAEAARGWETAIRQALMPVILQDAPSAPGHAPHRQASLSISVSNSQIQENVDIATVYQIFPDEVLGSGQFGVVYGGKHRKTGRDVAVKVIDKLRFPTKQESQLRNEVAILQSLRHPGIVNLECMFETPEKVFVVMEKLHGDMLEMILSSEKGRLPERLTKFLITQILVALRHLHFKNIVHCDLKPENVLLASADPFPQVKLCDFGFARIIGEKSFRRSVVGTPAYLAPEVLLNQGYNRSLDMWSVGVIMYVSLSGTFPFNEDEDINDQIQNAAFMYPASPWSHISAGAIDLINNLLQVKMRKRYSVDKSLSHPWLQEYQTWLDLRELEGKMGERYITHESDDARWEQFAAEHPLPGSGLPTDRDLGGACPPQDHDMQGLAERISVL
# UniProt P29322, sequence (whole entry, looked up): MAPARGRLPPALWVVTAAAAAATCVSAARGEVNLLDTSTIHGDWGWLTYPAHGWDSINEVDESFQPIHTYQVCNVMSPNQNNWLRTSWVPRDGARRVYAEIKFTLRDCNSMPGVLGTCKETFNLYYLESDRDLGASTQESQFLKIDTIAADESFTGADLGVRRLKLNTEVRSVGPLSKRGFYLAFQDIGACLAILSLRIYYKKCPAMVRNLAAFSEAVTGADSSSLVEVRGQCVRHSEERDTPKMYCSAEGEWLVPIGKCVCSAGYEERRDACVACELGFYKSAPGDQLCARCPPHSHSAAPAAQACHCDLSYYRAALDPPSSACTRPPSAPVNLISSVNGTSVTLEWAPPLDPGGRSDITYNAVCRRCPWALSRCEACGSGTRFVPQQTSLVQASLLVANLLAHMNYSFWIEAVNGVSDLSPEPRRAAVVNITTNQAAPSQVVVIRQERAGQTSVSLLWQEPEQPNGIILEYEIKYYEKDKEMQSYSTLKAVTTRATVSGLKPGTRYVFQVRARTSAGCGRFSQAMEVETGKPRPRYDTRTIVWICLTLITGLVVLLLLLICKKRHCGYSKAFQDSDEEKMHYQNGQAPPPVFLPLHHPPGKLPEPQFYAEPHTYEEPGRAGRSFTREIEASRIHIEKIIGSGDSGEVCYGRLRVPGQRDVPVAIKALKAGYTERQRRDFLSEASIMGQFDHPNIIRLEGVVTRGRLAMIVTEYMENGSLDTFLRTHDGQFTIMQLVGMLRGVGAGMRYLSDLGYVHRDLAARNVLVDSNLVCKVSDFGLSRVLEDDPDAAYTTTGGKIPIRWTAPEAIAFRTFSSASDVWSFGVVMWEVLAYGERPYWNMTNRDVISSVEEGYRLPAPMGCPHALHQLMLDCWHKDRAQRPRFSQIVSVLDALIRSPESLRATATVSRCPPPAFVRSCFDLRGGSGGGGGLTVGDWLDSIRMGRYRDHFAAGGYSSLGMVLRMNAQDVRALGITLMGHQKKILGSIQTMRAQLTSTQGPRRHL
# UniProt O43293, sequence (whole entry, looked up): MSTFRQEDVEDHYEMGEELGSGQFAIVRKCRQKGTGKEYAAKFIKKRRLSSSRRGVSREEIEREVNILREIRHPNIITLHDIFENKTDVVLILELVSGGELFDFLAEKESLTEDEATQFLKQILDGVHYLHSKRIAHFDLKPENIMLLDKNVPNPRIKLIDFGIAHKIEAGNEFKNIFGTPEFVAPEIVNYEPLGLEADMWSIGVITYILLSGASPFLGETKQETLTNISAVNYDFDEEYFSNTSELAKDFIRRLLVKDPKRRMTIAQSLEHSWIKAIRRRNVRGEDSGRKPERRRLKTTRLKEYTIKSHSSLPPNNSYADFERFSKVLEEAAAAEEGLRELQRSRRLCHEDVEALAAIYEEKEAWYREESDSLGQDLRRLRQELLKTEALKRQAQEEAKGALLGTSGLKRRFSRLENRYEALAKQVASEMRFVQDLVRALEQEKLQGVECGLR
# UniProt Q96KB5, sequence (whole entry, looked up): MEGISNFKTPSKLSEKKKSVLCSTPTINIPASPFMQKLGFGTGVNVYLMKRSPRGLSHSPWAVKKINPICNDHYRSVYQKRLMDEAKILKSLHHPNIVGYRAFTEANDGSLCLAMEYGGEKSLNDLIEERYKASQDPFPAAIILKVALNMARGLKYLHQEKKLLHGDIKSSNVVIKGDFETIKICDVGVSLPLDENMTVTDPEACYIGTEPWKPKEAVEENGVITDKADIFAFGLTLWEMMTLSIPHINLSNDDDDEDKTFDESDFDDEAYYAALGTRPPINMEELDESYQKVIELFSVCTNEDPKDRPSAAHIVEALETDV
# UniProt Q9BUB5, sequence (whole entry, looked up): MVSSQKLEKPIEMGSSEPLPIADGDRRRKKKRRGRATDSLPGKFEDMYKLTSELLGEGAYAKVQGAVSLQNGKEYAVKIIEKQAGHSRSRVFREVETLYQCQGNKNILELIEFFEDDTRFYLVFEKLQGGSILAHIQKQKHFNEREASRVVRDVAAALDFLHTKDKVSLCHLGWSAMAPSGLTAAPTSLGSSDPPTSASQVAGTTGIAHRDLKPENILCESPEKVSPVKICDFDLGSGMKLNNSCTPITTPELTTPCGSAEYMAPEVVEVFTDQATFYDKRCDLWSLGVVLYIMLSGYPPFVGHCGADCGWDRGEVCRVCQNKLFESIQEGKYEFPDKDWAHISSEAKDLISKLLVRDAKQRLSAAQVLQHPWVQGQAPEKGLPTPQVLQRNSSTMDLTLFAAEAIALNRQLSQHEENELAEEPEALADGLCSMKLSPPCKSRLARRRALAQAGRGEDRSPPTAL
# UniProt Q9P289, sequence (whole entry, looked up): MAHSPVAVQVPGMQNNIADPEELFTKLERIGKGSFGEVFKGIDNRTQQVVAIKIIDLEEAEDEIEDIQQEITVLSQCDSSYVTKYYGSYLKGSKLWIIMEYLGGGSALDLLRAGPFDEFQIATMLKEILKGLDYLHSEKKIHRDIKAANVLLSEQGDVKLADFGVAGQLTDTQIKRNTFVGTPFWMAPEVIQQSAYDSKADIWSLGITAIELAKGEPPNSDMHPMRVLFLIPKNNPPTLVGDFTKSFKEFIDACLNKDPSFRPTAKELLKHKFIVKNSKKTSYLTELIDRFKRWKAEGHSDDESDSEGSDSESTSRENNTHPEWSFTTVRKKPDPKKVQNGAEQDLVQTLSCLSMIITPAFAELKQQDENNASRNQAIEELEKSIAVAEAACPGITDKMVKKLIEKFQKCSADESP
# UniProt Q9HCP0, sequence (whole entry, looked up): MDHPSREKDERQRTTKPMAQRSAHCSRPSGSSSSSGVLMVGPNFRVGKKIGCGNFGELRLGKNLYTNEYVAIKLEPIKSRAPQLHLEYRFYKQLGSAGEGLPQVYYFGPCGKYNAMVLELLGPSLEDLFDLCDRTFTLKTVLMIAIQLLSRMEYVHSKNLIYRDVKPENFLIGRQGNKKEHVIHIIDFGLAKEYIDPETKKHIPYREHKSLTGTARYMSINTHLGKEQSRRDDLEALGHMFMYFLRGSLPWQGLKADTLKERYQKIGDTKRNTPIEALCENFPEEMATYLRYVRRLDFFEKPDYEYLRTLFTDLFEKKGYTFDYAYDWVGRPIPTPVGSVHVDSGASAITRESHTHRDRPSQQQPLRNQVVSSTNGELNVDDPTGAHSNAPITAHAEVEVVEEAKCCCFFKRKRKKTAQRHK
# UniProt Q13555, sequence (whole entry, looked up): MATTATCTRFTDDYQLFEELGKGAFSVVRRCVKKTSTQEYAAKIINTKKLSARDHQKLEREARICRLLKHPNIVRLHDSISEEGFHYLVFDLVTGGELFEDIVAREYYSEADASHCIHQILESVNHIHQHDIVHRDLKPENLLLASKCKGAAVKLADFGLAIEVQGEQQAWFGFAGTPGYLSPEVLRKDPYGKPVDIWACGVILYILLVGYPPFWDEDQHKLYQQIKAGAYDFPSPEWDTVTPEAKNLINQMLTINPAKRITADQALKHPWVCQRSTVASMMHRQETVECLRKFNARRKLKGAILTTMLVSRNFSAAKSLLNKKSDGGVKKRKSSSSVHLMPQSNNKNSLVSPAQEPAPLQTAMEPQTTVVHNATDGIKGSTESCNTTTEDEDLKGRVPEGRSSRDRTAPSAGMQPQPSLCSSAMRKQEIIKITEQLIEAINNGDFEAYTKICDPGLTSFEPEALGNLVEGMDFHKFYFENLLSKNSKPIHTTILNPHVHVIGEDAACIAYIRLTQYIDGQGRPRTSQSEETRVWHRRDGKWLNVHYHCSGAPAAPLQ
# UniProt P45983, sequence (whole entry, looked up): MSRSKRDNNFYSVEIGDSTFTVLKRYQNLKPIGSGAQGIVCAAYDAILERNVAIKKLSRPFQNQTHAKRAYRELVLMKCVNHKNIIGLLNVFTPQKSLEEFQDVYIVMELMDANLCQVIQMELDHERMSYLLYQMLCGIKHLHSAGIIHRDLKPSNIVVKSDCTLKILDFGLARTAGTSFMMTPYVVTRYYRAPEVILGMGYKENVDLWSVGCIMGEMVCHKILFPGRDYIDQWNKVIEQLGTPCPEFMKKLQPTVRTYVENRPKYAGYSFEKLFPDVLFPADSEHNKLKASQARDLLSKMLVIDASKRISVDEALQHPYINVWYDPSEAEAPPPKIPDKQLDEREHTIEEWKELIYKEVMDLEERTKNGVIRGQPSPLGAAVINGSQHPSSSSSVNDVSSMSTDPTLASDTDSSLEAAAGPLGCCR

# Sample 1 — cell line: mouse MPNST tumor cells; technique: high-content immunofluorescence imaging; refers to: nuclear SOX9; tested at: 10 µM; time: 12 h; setting: mean of 2 replicates; baseline: DMSO control; reading: higher = more nuclear SOX9
Structure (SMILES),nuclear SOX9 intensity
Cc1cc(C(=O)CN2CCCC2)c(C)n1-c1ccc(F)cc1,107 % of DMSO
CCCN(CCC)CCc1ccc(OC)c(OCCc2ccccc2)c1,148 % of DMSO
O=c1cccc2n1CC1CC2CN(CCN2CC3CC(C2)c2cccc(=O)n2C3)C1,85.8 % of DMSO
Cc1cccc([C@H](C)c2c[nH]cn2)c1C,91.5 % of DMSO and 95.7 % of DMSO
CC(CCc1ccccc1)NC(C)C(O)c1ccc(O)cc1 (stereo not shown),145 % of DMSO
CC(C)CC(N(C)C)C1(c2ccc(Cl)cc2)CCC1 (stereo not shown),106 % of DMSO
CC[C@@]1(O)C(=O)OCc2c1cc1n(c2=O)Cc2cc3ccccc3nc2-1,192 % of DMSO
C=C(C)C1CCC(C)=CC1c1c(OC)cc(C)cc1OC (stereo not shown),103 % of DMSO
O=[N+]([O-])O[C@@H]1CO[C@H]2[C@@H]1OC[C@@H]2O,95.5 % of DMSO
O=C(NCNC(=O)NC1C(=O)NC(=O)N1CO)NC1C(=O)NC(=O)N1CO (stereo not shown),99.3 % of DMSO
c1ccc([C@@H]2C[C@H]2NC2CCNCC2)cc1,104 % of DMSO and 96.6 % of DMSO

# Sample 2 — observed: enzyme activity; action: inhibitor; tested at: 0.5 µM; baseline: control
# Compound: COc1ccc2c(c[n+](C)c3c4cc5c(cc4ccc23)OCO5)c1OC
target,remaining activity
"MAPK8 (Homo sapiens, UniProt P45983)",89.8%
"EPHA1 (Homo sapiens, UniProt P21709)",98.3%
"MYLK2 (Homo sapiens, UniProt Q9H1R3)",95.3%
"MKNK1 (Homo sapiens, UniProt Q9BUB5)",102%
"ERBB4 (Homo sapiens, UniProt Q15303)",99.9%
"IRAK1 (Homo sapiens, UniProt P51617)",103%
"NEK7 (Homo sapiens, UniProt Q8TDX7)",98.9%
"Protein kinase C beta type, isoform beta-II (PRKCB, Homo sapiens, UniProt P05771)",100%
"STK26 (Homo sapiens, UniProt Q9P289)",89.4%
"CAMK2G (Homo sapiens, UniProt Q13555)",95.9%
"EPHA8 (Homo sapiens, UniProt P29322)",100%
"STK24 (Homo sapiens, UniProt Q9Y6E0)",84.2%
"PBK (Homo sapiens, UniProt Q96KB5)",102%
"PRKD2 (Homo sapiens, UniProt Q9BZL6)",90.1%
"CSNK1G1 (Homo sapiens, UniProt Q9HCP0)",106%
"TYK2 (Homo sapiens, UniProt P29597)",108%
"MAPKAPK5 (Homo sapiens, UniProt Q8IW41)",83.5%
"MAP3K11 (Homo sapiens, UniProt Q16584)",95%
"DAPK3 (Homo sapiens, UniProt O43293)",102%
"NUAK2 (Homo sapiens, UniProt Q9H093)",98.9%

# Sample 3 — sample: plasma
# Structure (SMILES): O=C1CCC(N2Cc3c(ccc4c3OCC43CCN(Cc4ccccc4)CC3)C2=O)C(=O)N1 (stereo not shown)
host,route,dose,time,concentration
male CD-1 mouse,intravenous,1 mg/kg,2 h,58.6 ng/mL
male CD-1 mouse,intravenous,1 mg/kg,4.98 min,299 ng/mL
male CD-1 mouse,oral,3 mg/kg,6 h,46.1 ng/mL
male Sprague-Dawley rat,intravenous,1 mg/kg,4.98 min,373 ng/mL
male Sprague-Dawley rat,oral,3 mg/kg,2 h,182 ng/mL
male Sprague-Dawley rat,intravenous,1 mg/kg,2 h,118 ng/mL
male CD-1 mouse,oral,3 mg/kg,15 min,258 ng/mL
male Sprague-Dawley rat,intravenous,1 mg/kg,30 min,251 ng/mL
male CD-1 mouse,oral,3 mg/kg,2 h,230 ng/mL
male Sprague-Dawley rat,oral,3 mg/kg,6 h,110 ng/mL
male Sprague-Dawley rat,oral,3 mg/kg,15 min,34.1 ng/mL
male Sprague-Dawley rat,intravenous,1 mg/kg,8 h,16 ng/mL
male Sprague-Dawley rat,oral,3 mg/kg,8 h,31 ng/mL
male CD-1 mouse,oral,3 mg/kg,30 min,376 ng/mL
male CD-1 mouse,oral,3 mg/kg,1 h,370 ng/mL
male CD-1 mouse,intravenous,1 mg/kg,1 h,118 ng/mL
male Sprague-Dawley rat,intravenous,1 mg/kg,1 h,181 ng/mL
male Sprague-Dawley rat,oral,3 mg/kg,1 h,106 ng/mL
male CD-1 mouse,intravenous,1 mg/kg,4 h,21.8 ng/mL
male Sprague-Dawley rat,oral,3 mg/kg,4 h,239 ng/mL

# Sample 4 — observed: dsDNA unwinding; technique: PicoGreen fluorescence; sample: annealed dsDNA substrate; tested at: 20 µM
Compound,effect
COc1cc(C(=S)N2CCOCC2)ccc1O,3.2%
O=C(/C=C/c1ccc2ccccc2n1)c1ccncc1,1.29%
COc1cc2c(cc1OC)-c1cc3ccc(OC)c(OC)c3c[n+]1CC2,3.1%
O=C(O)c1ccc(SSc2ccc(C(=O)O)cn2)nc1,3.43%
C[CH2][Hg][S]c1ccccc1C(=O)[O-].[Na+],-0.8%
Nc1nnc(Sc2ncc([N+](=O)[O-])s2)s1,16.8%
CCOC(=O)C1=C(N)Oc2ccc(Br)cc2[C@H]1[C@H](C#N)C(=O)OCC,11.1% and 3.09%
CC1OC2(CS1)CN1CCC2CC1 (stereo not shown),8.23%
CC(C)N(CCC(=O)c1ccc2ccccc2c1)Cc1ccccc1,1.74%
Oc1cc2c(cc1O)[C@@H]1c3ccc(O)c(O)c3OC[C@]1(O)C2,1.87%
CC(=O)[O][Pt]([NH2])([Cl])([Cl])([NH]C1CCCCC1)[O]C(C)=O,5.86%
CC(C)n1nc(C#Cc2ccccc2)c2c(N)ncnc21,3.71%
O=S(=O)(O)c1ccc(-c2c3nc(c(-c4ccc(S(=O)(=O)O)cc4)c4ccc([nH]4)c(-c4ccc(S(=O)(=O)O)cc4)c4nc(c(-c5ccc(S(=O)(=O)O)cc5)c5ccc2[nH]5)C=C4)C=C3)cc1,-0.69%
CC(C)N[C@@H]1CCn2c(=O)[nH]c3cccc(c32)[C@H]1O,14.4%
O=C1C2CC=CCC2C(=O)N1SC(Cl)(Cl)Cl (stereo not shown),12.7%
Cc1ccc(C(=O)Nc2ccc(S(=O)(=O)O)c3cc(S(=O)(=O)O)cc(S(=O)(=O)O)c23)cc1NC(=O)c1cccc(NC(=O)Nc2cccc(C(=O)Nc3cc(C(=O)Nc4ccc(S(=O)(=O)O)c5cc(S(=O)(=O)O)cc(S(=O)(=O)O)c45)ccc3C)c2)c1,37.9%
S=C(S)N1CCCC1,6.05%
O=c1[nH]nc(Sc2ncc([N+](=O)[O-])s2)n1-c1ccc2c(c1)OCCO2,8.75%
Oc1c(I)cc(I)c(O)c1I,13.1%
O=C1C=CC(=O)C2=C1C1c3ccccc3C2c2ccccc21,6.47%
COc1cccc(Nc2c(C(N)=O)cnc3c(C)cc(S(=O)(=O)c4cccc(C(=O)N(C)C)c4)cc23)c1,-2.43%
N#CSc1cc(SC#N)c(N)nc1N,4.09%
O=C1C(c2ccccn2)=[N+]([O-])c2ccccc21,6.52%
CCn1c(N)c(C(=O)NC)c(=O)c2ccc(C#C[C@@](C)(O)COC)nc21,-3.15%
COC(=O)C1=C(C)NC(C)=C(C(=O)OCC(C)C)C1c1ccccc1[N+](=O)[O-] (stereo not shown),-5.76%
